Results of several laboratories.
Each line is one published result; not all experiments were run side by side. Values joined by “and” are separate records of one study, mostly repeats; a detail may differ. Numbers after ± are the reported error.
B1: aldolase A; sequence looked up; chain PYQYPALTPEQKKELSDIAHRIVAPGKGILAADESTGSIAKRLQSIGTENTEENRRFYRQLLLTADDRVNPCIGGVILFHETLYQKADDGRPFPQVIKSKGGVVGIKVDKGVVPLAGTNGETTTQGLDGLSERCAQYKKDGADFAKWRCVLKIGEHTPSALAIMENANVLARYASICQQNGIVPIVEPEILPDGDHDLKRCQYVTEKVLAAVYKALSDHHIYLEGTLLKPNMVTPGHACTQKFSHEEIAMATVTALRRTVPPAVTGITFLSGGQSEEEASINLNAINKCPLLKPWALTFSYGRALQASALKAWGGKKENLKAAQEEYVKRALANSLACQGKYTPSGQAGAAASESLFVSNHAY
B2: BASP1; sequence looked up; chain GGKLSKKKKGYNVNDEKAKEKDKKAEGAATEEEGTPKESEPQAAAEPAEAKEGKEKPDQDAEGKAEEKEGEKDAAAAKEEAPKAEPEKTEGAAEAKAEPPKAPEQEQAAPGPAAGGEAPKAAEAAAAPAESAAPAAGEEPSKEEGEPKKTEAPAAPAAQETKSDGAPASDSKPGSSEAAPSSKETPAATEAPSSTPKAQGPAASAEEPKPVEAPAANSDQTVTVKE

Molecule	target or system	test	test system	setting	how to read	measurement	value
pertussis toxin	–	immunostaining, refers to: p-PKA	humanized UT (+/h+) mice, SAH model, meninges	dose not given	–	phospho-PKA level	97.1 MFI and 78.9 MFI and 122 MFI
colistin	Aspergillus fumigatus	–	conidia	40 µM, with: caspofungin 0.2 µg/mL	relative to: caspofungin alone	CFU relative to caspofungin alone	1.11 and 0.904 and 1.23
RAIRGEQLL	Mamu-B*08301 MHC class I	peptide binding	peptide, Chinese rhesus macaque	–	–	IC50	> 20 µM
(−)-antroquinonol A	MDA-MB-231	cytotoxicity, MTS	–	72 h	–	IC50	> 25 µM
aspterric acid	–	root length	Arabidopsis thaliana Col-0 seeds	25 µg/mL, seed germination	relative to: water control	inhibition	99.2%
hexaarginine	PorA peptide pore	peptide binding, planar bilayer single-channel recording	–	0.5 µM, pH 7.4, -10 mV, cis side, 150 mM KCl	–	koff	1670 ± 160 s⁻¹
GWTLNSAGYLLGPHAVDNHRSFNDKHGFT-NH2 (C-amide)	–	RT-qPCR, refers to: Il1a	peptide, mouse, DSS-induced colitis, colon	ip, 3 µM, 3% DSS, unit not given	relative to: Gapdh	mRNA level	0.879 and 0.322 and 1 and 0.902 and 0.43
B1 (aldolase A)	–	peptide binding, SILAC pull-down	–	concentration not given	relative to: non-acetylated over acetylated NIT1 peptide	log2 fold change	-0.871
insulin human	–	refers to: GLUD1 mRNA	uninfected mouse, brain	i.p., dose not given	relative to: PBS	fold change	1.05
Met-enkephalin-Arg-Phe	–	antinociception, hot plate	male ICR-CD1 mice	intracerebroventricular, 50 µg/animal, 60 min	–	maximum possible effect	10.5% and 2.65% and -4.33% and 4.92% and 12.2% and -8.12% and -8.2% and 11%
nonaarginine	PorA peptide pore	peptide binding, planar bilayer single-channel recording	–	0.5 µM, pH 7.4, -40 mV, cis side, 150 mM KCl	–	kon	3e+07 ± 3e+06 M⁻¹ s⁻¹
B2 (BASP1)	–	peptide binding, SILAC pull-down	–	concentration not given	relative to: non-acetylated over acetylated NIT1 peptide	log2 fold change	-0.0759
KLPQLCTEV	HN-30 (HLA-A2− HPV+)	111In release	peptide	concentration not given, 16 h, E:T 25:1 IVS 5, with: peptide-generated T-cell line	–	specific lysis	2.1%
GWTLNSAGYLLGPRRIDHLLMIKEMPIARGREEAPGA / YAVDNHRSFNDKHGFT-NH2 (C-amide)	–	–	female mice, DSS-induced colitis	ip, 3 µM	–	colon length	7.4 cm and 7.2 cm and 7.8 cm and 7.5 cm and 7.3 cm
argonaute 2	–	peptide binding, SILAC pull-down	–	concentration not given	relative to: non-acetylated over acetylated NIT1 peptide	log2 fold change	-0.582

A few entries again:
Molecule	target or system	test	test system	setting	how to read	measurement	value
B1 (aldolase A)	–	peptide binding, SILAC pull-down	–	concentration not given	relative to: non-acetylated over acetylated NIT1 peptide	log2 fold change	-0.871
insulin human	–	refers to: GLUD1 mRNA	uninfected mouse, brain	i.p., dose not given	relative to: PBS	fold change	1.05
